Measured values pooled from the literature.
Lines come from different studies, so protocols differ. Several values in a cell are separate wells, animals, samples, runs or records. ± gives the spread as reported.
rep main protease: Replicase polyprotein 1ab, main protease (rep, Severe acute respiratory syndrome coronavirus 2, UniProt P0DTD1)
rep nsp3 macrodomain: Replicase polyprotein 1ab, nsp3 macrodomain (rep, Severe acute respiratory syndrome coronavirus 2, UniProt P0DTD1)
rep papain-like protease: Replicase polyprotein 1ab, papain-like protease (rep, Severe acute respiratory syndrome coronavirus 2, UniProt P0DTD1)

COc1cccc2c1C(=O)C=CC2=O — inhibition (rep main protease; enzyme activity, inhibitor; 1 µM): 90.8%
O=C(CCN(Cc1ccco1)C(=O)c1csc(Nc2ccccc2)n1)NCc1cccc(C(F)(F)F)c1 — inhibition (rep main protease; nsp5 protease activity, luciferase; HEK293T; 10 µM): 49.9 ± 0.2%
O=c1c2ccccc2sn1-c1ccccc1 — inhibition (rep main protease; enzyme activity, inhibitor; 0.1 µM): 28.2%
COc1cc(C(=O)N(CCC(=O)N2CCNCC2)Cc2cccc(Cl)c2)cc(OC)c1OC — inhibition (rep nsp3 macrodomain; ADP-ribosylhydrolase activity, inhibitor, gel-based de-MARylation; 25 µM, SARS-CoV-2 Mac1): 9%
CC(NC(=O)c1ccccc1[Se][Se]c1ccccc1C(=O)NC(C)C(=O)O)C(=O)O (stereo not drawn) — inhibition (rep main protease; enzyme activity, inhibitor; 40 µM, mean of repeats): 103%
Nn1cnn2c(SCC(=O)Nc3nnc(SCC(=O)Nc4ccc(S(N)(=O)=O)cc4)s3)nnc12 — inhibition (rep papain-like protease; enzyme activity, inhibitor; 100 µg/mL): 0%
C[C@](C(=O)NC1CCOCC1)(c1cncnc1)N(C(=O)[C@H](F)Cl)c1ccc(OC(F)(F)Cl)cc1 — inhibition (rep main protease; enzyme activity, inhibitor; 14 nM): 44.8%
O=c1c2ccccc2[se]n1-c1ccnc(Cl)c1 — inhibition (rep main protease; enzyme activity, inhibitor; 0.3 µM): 74%
COC(=O)C(=O)/C(=C\c1ccc(-c2ccccc2[N+](=O)[O-])o1)C(=O)c1ccccc1 — inhibition (rep main protease; enzyme activity, inhibitor; 100 µM): 98.1%
O=C(Oc1cncc(Cl)c1)c1cccs1 — inhibition (rep main protease; enzyme activity, inhibitor; 50 µM): 96.1%
C[C@](C(=O)NC1CCC(F)(F)CC1)(c1cncnc1)N(C(=O)[C@H](F)Cl)c1ccc(OC(F)(F)F)cc1 — inhibition (rep main protease; enzyme activity, inhibitor; 8.333 µM): 100%
C=C1CC[C@@H]2[C@](C)(COC(C)=O)[C@H](OC(C)=O)CC[C@@]2(C)[C@@H]1C[C@H](SC(=S)N1CCN(C(c2ccc(F)cc2)c2ccc(F)cc2)CC1)C1=CCOC1=O — inhibition (rep main protease; enzyme activity, inhibitor, fluorescence; 10 µM): > 50%
C[C@H]1CC[C@@H]2[C@H]([C@@H]1n1[se]c3ccccc3c1=O)C2(C)C — inhibition (rep main protease; enzyme activity, inhibitor; 40 µM): 102%
O=C(Oc1ccc(OC(=O)c2ccc(C(=O)Nc3ccccc3C(=O)O)c(C(=O)O)c2)cc1)c1ccc(C(=O)Nc2ccccc2C(=O)O)c(C(=O)O)c1 — inhibition (rep papain-like protease; enzyme activity, inhibitor; 100 µg/mL): 0%
COC(=O)c1cc2c(=O)n3ccccc3nc2n1Cc1ccccc1 — inhibition (rep main protease; enzyme activity, inhibitor; 100 µM): 33%
C[C@@H](Cc1ccc(O)c(O)c1)[C@@H](C)Cc1ccc(O)c(O)c1 — inhibition (rep main protease; enzyme activity, inhibitor, FRET; 8 µM): 48.4%
O=C1c2ccccc2C(=O)c2oc(-c3ccccc3)nc21 — inhibition (rep papain-like protease; enzyme activity, inhibitor; 60 µM): ≤ 50%
CC(=O)Nc1ccc(-c2cnc(N3C(=O)CSC3c3cc4ccccc4nc3Cl)s2)cc1 (stereo not drawn) — inhibition (rep papain-like protease; enzyme activity, inhibitor; 10 µM): 19.4%
O=C(NC1CCC(F)(F)CC1)C(c1cncnc1)N(C(=O)C(F)Cl)c1ccc(-c2cncs2)cc1 (stereo not drawn) — inhibition (rep main protease; enzyme activity; 0.926 µM): 103% and 100%
Nc1cccc(-n2[se]c3ccccc3c2=O)n1 — inhibition (rep main protease; enzyme activity, inhibitor; 0.3 µM): 46.9%
COc1cc(Oc2c(OC)cc(C)c(Br)c2O)c(C(=O)O)c(C)c1O — inhibition (rep main protease; enzyme activity, inhibitor, FRET; 10 µM): 20.6%
O=C(NC1CCN(c2ncnc3[nH]cnc23)CC1)c1cccc(NS(=O)(=O)c2ccc(C(F)(F)F)cc2)c1 — inhibition (Replicase polyprotein 1ab, nsp14 with nsp10 (rep, Severe acute respiratory syndrome coronavirus 2, UniProt P0DTD1); exonuclease activity; SARS-CoV-2; 200 µM): 31.8%
CCOc1cc(/C=N/NC(=O)COCC(=O)N/N=C/c2ccc(O)c(OCC)c2)ccc1O — inhibition (rep main protease; enzyme activity, inhibitor; 100 µg/mL): 0%
CCOC(=O)Cn1[se]c2ccccc2c1=O — inhibition (rep main protease; enzyme activity, inhibitor; 40 µM, mean of repeats): 104%
COc1cc2[nH]c(=O)n(CCC(=O)NCc3ccc4c(c3)OCO4)c(=O)c2cc1OC — inhibition (rep papain-like protease; enzyme activity, inhibitor; 100 µg/mL): 0.53%
CCOC(=O)CC[C@@H](C(=O)OCC)n1[se]c2ccccc2c1=O — inhibition (rep main protease; enzyme activity, inhibitor; 40 µM, mean of repeats): 102%
O=C(NC1CCC(F)(F)CC1)C(c1cncnc1)N(C(=O)C(F)Cl)c1ccc(OC(F)(F)F)cc1 (stereo not drawn) — inhibition (rep main protease; enzyme activity, inhibitor; 25 µM): 101%
OCC1OC(Oc2cc3c(O)cc(O)cc3[o+]c2-c2ccc(O)c(O)c2)C(O)C(O)C1O (stereo not drawn) — inhibition (rep main protease; enzyme activity, inhibitor; 50 µM): 22.6%
CC[C@@H](C)[C@H](NC(=O)c1ccccc1[Se][Se]c1ccccc1C(=O)N[C@H](C(=O)O)[C@H](C)CC)C(=O)O — inhibition (rep main protease; enzyme activity, inhibitor; 40 µM, mean of repeats): 72.2%
O=C(Oc1cncc(Cl)c1)c1cc2ccccc2o1 — inhibition (rep main protease; enzyme activity, inhibitor, fluorescence; 10 µM, pH 7.2): 100%
Cc1cnccc1-n1[se]c2ccccc2c1=O — inhibition (rep main protease; enzyme activity, inhibitor; 0.3 µM): 75.1%
CC(C)[C@H](NC(=O)c1ccccc1[Se][Se]c1ccccc1C(=O)N[C@H](C(=O)O)C(C)C)C(=O)O — inhibition (rep main protease; enzyme activity, inhibitor; 40 µM): 102% and 105%
O=C(Oc1cncc(Cl)c1)c1cccc2cc[nH]c12 — inhibition (rep main protease; enzyme activity, inhibitor, fluorescence; 10 µM, pH 7.2): 100%
COC(=O)C[C@@H](C(=O)OC)n1[se]c2ccccc2c1=O — inhibition (rep main protease; enzyme activity, inhibitor; 40 µM): 105%
CC(=O)Nc1ccc(S(=O)(=O)NNc2ncnc3sccc23)cc1 — inhibition (rep nsp3 macrodomain; ADP-ribosylhydrolase activity, inhibitor, gel-based de-MARylation; 1 µM, SARS-CoV-2 Mac1): 17%
COc1ccc(-c2cc(=O)c3c(O)cc(O)c(-c4cc(-c5cc(=O)c6c(O)cc(OC)cc6o5)ccc4OC)c3o2)cc1 — inhibition (rep papain-like protease; enzyme activity, inhibitor; 20 µM): 32.3 to 34.1%

A few entries again:
COC(=O)C(=O)/C(=C\c1ccc(-c2ccccc2[N+](=O)[O-])o1)C(=O)c1ccccc1 — inhibition (rep main protease; enzyme activity, inhibitor; 100 µM): 98.1%
O=c1c2ccccc2sn1-c1ccccc1 — inhibition (rep main protease; enzyme activity, inhibitor; 0.1 µM): 28.2%
CCOC(=O)Cn1[se]c2ccccc2c1=O — inhibition (rep main protease; enzyme activity, inhibitor; 40 µM, mean of repeats): 104%
O=C(Oc1cncc(Cl)c1)c1cccs1 — inhibition (rep main protease; enzyme activity, inhibitor; 50 µM): 96.1%
